Measured values from different studies.
Technique: steady-state kinetics
B1: spt (Sphingomonas paucimobilis, UniProt Q93UV0); chain TEAAAQPHALPADAPDIAPERDLLSKFDGLIAERQKLLDSGVTDPFAIVMEQVKSPTEAVIRGKDTILLGTYNYMGMTFDPDVIAAGKEALEKFGSGTNGSRMLNGTFHDHMEVEQALRDFYGTTGAIVFSTGYMANLGIISTLAGKGEYVILDADSHASIYDGCQQGNAEIVRFRHNSVEDLDKRLGRLPKEPAKLVVLEGVYSMLGDIAPLKEMVAVAKKHGAMVLVDEAHSMGFFGPNGRGVYEAQGLEGQIDFVVGTFSKSVGTVGGFVVSNHPKFEAVRLACRPYIFTASLPPSVVATATTSIRKLMTAHEKRERLWSNARALHGGLKAMGFRLGTETCDSAIVAVMLEDQEQAAMMWQALLDGGLYVNMARPPATPAGTFLLRCSICAEHTPAQIQTVLGMFQAAGRAVGVIG
B2: enzyme (Arabidopsis thaliana, UniProt Q9LJK1); chain EKCQEWLERVDSVTYSRDFTKDPIFISGSNKDFKSCSVDCVMGFTSDKKPDAAFGLSHQPGTLSIIRSMESAQYYQENNLAQARRKGYDIVMTTSLSSDVPVGYFSWAEYDIMAPVQPKTEKALAAAFISNCAARNFRLQALEALMKTNVKIDSYGGCHRNRDGSVEKVEALKHYKFSLAFENTNEEDYVTEKFFQSLVAGSVPVVVGAPNIEEFAPSPDSFLHIKQMDDVKAVAKKMKYLADNPDAYNQTLRWKHEGPSDSFKALIDMAAVHSSCRLCIFVATRIREQEEKSPEFKRRPCKCTRGSETVYHLYVRERGRFDMESIFLKDGNLTLEALESAVLAKFMSLRYEPIWKKERPASLRGDGKLRVHGIYPIGLTQRQALYNFKFEGNSSLSTHIQRNPCPKFEVVFV
B3: PYCR2 R119C (Homo sapiens, UniProt Q96C36); chain MSVGFIGAGQLAYALARGFTAAGILSAHKIIASSPEMNLPTVSALRKMGVNLTRSNKETVKHSDVLFLAVKPHIIPFILDEIGADVQARHIVVSCAAGVTISSVEKKLMAFQPAPKVICCMTNTPVVVQEGATVYATGTHALVEDGQLLEQLMSSVGFCTEVEEDLIDAVTGLSGSGPAYAFMALDALADGGVKMGLPRRLAIQLGAQALLGAAKMLLDSEQHPCQLKDNVCSPGGATIHALHFLESGGFRSLLINAVEASCIRTRELQSMADQEKISPAALKKTLLDRVKLESPTVSTLTPSSPGKLLTRSLALGGKKD
B4: enzyme S252E/S281E/S285E/S287E (Schizosaccharomyces pombe, UniProt P78804); chain MSTPYEPEFQQAYKEIVGSIESSKLFEVHPELKRVLPIISIPERVLEFRVTWEDDKGNCRVNTGYRVQFNSALGPYKGGLRFHPSVNLSILKFLGFEQIFKNALTGLPMGGGKGGSDFDPKGKSDNEIRRFSQAFMRQLFRYIGPQTDVPAGDIGVTGFVVMHMFGEYKRLRNEYSGVVTGKHMLTGGSNIRPEATGYGVVYYVKHMIEHRTKGAETLKGKRVAISGSGNVAQYAALKCIQEGAIVKSISDEKGVLIAKTAEGLVPEEIHEIMALKEKRAEIADEAELCKKHHYIAGARPWTNVGEIDIALPCATQNEVSGEEAAALIKQGCRYVAEGSNMGSSAEAVEVFEKSRASGEGCWLAPGKAANAGGVAVSGLEMAQNAQFSTWTHAEVDAKLAGIMQNIFEQSTDVASKYCDSGSNNIPSLVDGANIAGFLKVATAMQAVGDWW
B5: CDA (Homo sapiens, UniProt P32320); chain MAQKRPACTLKPECVQQLLVCSQEAKKSAYCPYSHFPVGAALLTQEGRIFKGCNIENACYPLGICAERTAIQKAVSEGYKDFRAIAIASDMQDDFISPCGACRQVMREFGTNWPVYMTKPDGTYIVMTVQELLPSSFGPEDLQKTQ
B6: SCO6712 V290N/Y229F (Streptomyces coelicolor, UniProt Q9XAL8); chain AKGITARTAPAGGEVRHLKMYAEKLADGQMGYGFEKGKASVPGPLIEVNEGDTLHIEFTNTMDVRASLHVHGLDYEISSDGTAMNKSDVEPGGTRTYTWRTHKPGRRDDGTWRPGSAGYWHYHDHVVGTEHGTGGIRNGLYGPVIVRRKGDVLPDATHTIVFNDMTINNRKPHTGPDFEATVGDRVEIVMITHGEFYHTFHMHGHRWADNRTGILTGPDDPSRVIDNKITGPADSFGFQIIAGEGVGAGAWMYHCHNQSHSDMGMVGLFLVKKPDGTIPGYEPHEHGGATAKSGESGEPTGGAAAHEHEH
B7: enzyme (UniProt A0A0P0CH59); chain MRIALFSDIHANLPALEAVLANMETQQLDAIYCLGDLVGYAPWPNEVVAEIRKRRIPTIAGNYDEGVGLWSPNCGCAYKTDTEKDLGQQSIDFTNNVVTEETRKYLRMLPRQLRLTFMDGSKEENKIELLLVHGSPRKINEYLFEDRPEKSFLKMMEEANADLLFFGHTHKPYHRAMPYEHEGQTRYRHAINIGSVGKPKDGDPRTGYVVVELTPESSLTQKDSIKVEFIRVPYDVETAAQAVEASPLPNEFAQMLRTA
B8: enzyme (Escherichia coli, UniProt P0AGF6); chain MHITYDLPVAIDDIIEAKQRLAGRIYKTGMPRSNYFSERCKGEIFLKFENMQRTGSFKIRGAFNKLSSLTDAEKRKGVVACSAGNHAQGVSLSCAMLGIDGKVVMPKGAPKSKVAATCDYSAEVVLHGDNFNDTIAKVSEIVEMEGRIFIPPYDDPKVIAGQGTIGLEIMEDLYDVDNVIVPIGGGGLIAGIAVAIKSINPTIRVIGVQSENVHGMAASFHSGEITTHRTTGTLADGCDVSRPGNLTYEIVRELVDDIVLVSEDEIRNSMIALIQRNKVVTEGAGALACAALLSGKLDQYIQNRKTVSIISGGNIDLSRVSQITGFVDA
B9: enzyme (Myxococcus xanthus, UniProt Q1D030); chain MAQTQEALIPTKDAFSRKAHVKSLEDYQRLYQRSIQQPEAFWSEMAEQLTWFHKPDAIMDLDAEQVDFSWFGGGKLNAAYNCIDRHATERPGKVAIIWAKNEPGEYESITYRDLQHHVGRVANVLKAHGVRKGDRVCIYLPMVPELAYTMLACARIGAVHSVVFAGFSSEALRERILDSGAKVLITANEGPRGPKFVPTKAIADEAVEGLSLVESILVVRRTGKEVPMLAGRDYWLDAEMAKHRGVCPAEWMDSEDPLFILYTSGSTGKPKGVLHTTGGYLVYAATTFRYVFDIQPEDVYFCAADLGWVTGHSYILYGPLMNGTTTVMFESTPTFPDAGRLWRVVDDLKATILYTAPTALRSLIKEGDAWVKKSSRQSLRLLGSVGEPINPEVWRWYHDVVGEGRCPVVDTWWQTETGGILIAPLPGATPTKPGSATLPFFGVEPVLVDDEGRVIEGNGVSGNLCLARSWPGQARTLYGHHQRFKETYYARFPNLYFTGDGCRRDEDGYYWITGRVDDVLNVSGHRLGTAEVESALVAHEAVAEAAVVGFPHDLKGTGVCAFVTVKPDWQESASEQMVGALKEQVRHVIGPIATPDRVVLVNGLPKTRSGKILRRMLRKIASGEVENLGDASTLADPSVLDELLAKATPPQAKR
Chain of UniProt O80970 (whole entry, looked up): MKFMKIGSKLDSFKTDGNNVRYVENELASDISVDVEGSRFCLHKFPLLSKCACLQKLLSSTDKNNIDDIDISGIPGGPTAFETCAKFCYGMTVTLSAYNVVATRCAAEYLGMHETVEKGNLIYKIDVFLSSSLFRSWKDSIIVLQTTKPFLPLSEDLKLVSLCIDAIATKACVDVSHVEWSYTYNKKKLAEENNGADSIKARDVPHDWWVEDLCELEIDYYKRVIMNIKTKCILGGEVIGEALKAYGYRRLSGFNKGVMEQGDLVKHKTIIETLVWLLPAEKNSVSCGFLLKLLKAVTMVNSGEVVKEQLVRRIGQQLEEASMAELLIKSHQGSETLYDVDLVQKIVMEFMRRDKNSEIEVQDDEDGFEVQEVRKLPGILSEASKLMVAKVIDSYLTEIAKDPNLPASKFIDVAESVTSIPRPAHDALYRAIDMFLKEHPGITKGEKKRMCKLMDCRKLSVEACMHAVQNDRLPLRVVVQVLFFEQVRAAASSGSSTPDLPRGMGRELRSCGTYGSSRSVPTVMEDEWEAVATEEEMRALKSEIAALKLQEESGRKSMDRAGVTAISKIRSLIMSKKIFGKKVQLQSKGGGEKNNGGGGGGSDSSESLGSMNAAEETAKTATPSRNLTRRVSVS
Chain of UniProt P06133 (whole entry, looked up): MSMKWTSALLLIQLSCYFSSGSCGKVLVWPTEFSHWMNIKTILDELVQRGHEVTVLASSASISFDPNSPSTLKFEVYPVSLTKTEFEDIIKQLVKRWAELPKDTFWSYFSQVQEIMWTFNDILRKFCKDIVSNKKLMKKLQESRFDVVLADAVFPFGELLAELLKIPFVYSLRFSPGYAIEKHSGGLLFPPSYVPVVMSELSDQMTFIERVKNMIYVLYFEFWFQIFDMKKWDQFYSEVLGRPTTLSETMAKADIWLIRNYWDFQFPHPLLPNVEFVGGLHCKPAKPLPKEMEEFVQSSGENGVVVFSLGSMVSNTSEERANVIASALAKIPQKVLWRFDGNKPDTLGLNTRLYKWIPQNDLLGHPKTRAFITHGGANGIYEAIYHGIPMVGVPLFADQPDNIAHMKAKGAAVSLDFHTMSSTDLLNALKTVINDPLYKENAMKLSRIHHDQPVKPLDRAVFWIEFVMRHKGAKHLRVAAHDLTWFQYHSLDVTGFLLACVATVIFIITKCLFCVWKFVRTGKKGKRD

Molecule	substrate	pH	temperature	notes	added	Km [µM]
B1 (spt)	CCCCCCCCCCCCCCCC(=O)SCCNC(=O)CCNC(=O)[C@H](O)C(C)(C)COP(=O)(O)OP(=O)(O)OC[C@H]1O[C@@H](n2cnc3c(N)ncnc32)[C@H](O)[C@@H]1OP(=O)(O)O				PLP	41
B2 (enzyme)	C[C@@H]1O[C@H](OP(=O)(O)OP(=O)(O)OC[C@H]2O[C@@H](n3cnc4c(=O)[nH]c(N)nc43)[C@H](O)[C@@H]2O)[C@@H](O)[C@H](O)[C@@H]1O	pH 6.5	30 °C			100
acsA (Pseudomonas chlororaphis, UniProt Q5CD72)	CCCC(=O)O	pH 7				180
B3 (PYCR2 R119C)	NC(=O)C1=CN([C@@H]2O[C@H](COP(=O)(O)OP(=O)(O)OC[C@H]3O[C@@H](n4cnc5c(N)ncnc54)[C@H](O)[C@@H]3O)[C@@H](O)[C@H]2O)C=CC1	pH 7.5	37 °C	apparent, cofactor varied	DL-P5C 5000 µM	34
enzyme (Acinetobacter baumannii, UniProt A0A5P1UDB1)	O=C(O)c1ccccc1O	pH 7.5	37 °C	apparent		71.9
B4 (enzyme S252E/S281E/S285E/S287E)	NC(=O)C1=CN([C@@H]2O[C@H](COP(=O)(O)OP(=O)(O)OC[C@H]3O[C@@H](n4cnc5c(N)ncnc54)[C@H](O)[C@@H]3O)[C@@H](O)[C@H]2O)C=CC1	pH 7	30 °C	apparent		12000
enzyme K123A (Homo sapiens, UniProt Q08623)	O=c1[nH]cc([C@@H]2O[C@H](COP(=O)(O)O)[C@@H](O)[C@H]2O)c(=O)[nH]1	pH 7	25 °C			1.8
enzyme (UniProt P0DY30)	CC(=O)N[C@H]1[C@H](Oc2ccc([N+](=O)[O-])cc2)O[C@H](CO)[C@@H](O[C@@H]2O[C@H](CO)[C@H](O)[C@H](O)[C@H]2O)[C@@H]1O	pH 6	50 °C			1780
enzyme (Oryza sativa, UniProt Q6ZGQ4)	O=[N+]([O-])c1ccc(O[C@@H]2OC[C@H](O)[C@H](O)[C@H]2O)cc1	pH 4	40 °C	apparent		84000
B5 (CDA)	Nc1ccn([C@H]2C[C@H](O)[C@@H](CO)O2)c(=O)n1	pH 7.4	37 °C			31.6
UGT2B4 (Homo sapiens, UniProt P06133)	CC(C)=CCc1cc2c(cc1O)O[C@H](c1ccc(O)cc1)CC2=O	pH 7.4				10.7
B6 (SCO6712 V290N/Y229F)	CCn1c(=NN=c2sc3cc(S(=O)(=O)O)ccc3n2CC)sc2cc(S(=O)(=O)O)ccc21	pH 7	37 °C	NaCl 150 mM	O2 cosubstrate	1100
B7 (enzyme)	O=[N+]([O-])c1ccc(OP(=O)(O)O)cc1		37 °C		Ni2+ 0.25 mM	13700
B8 (enzyme)	C[C@@H](O)[C@H](N)C(=O)O	pH 7.5	23 °C	apparent, not purified	PLP 0.1 mM, L-Thr	97500
enzyme (Arabidopsis thaliana, UniProt O80970)	Nc1nc2c(ncn2[C@@H]2O[C@H](COP(=O)(O)OP(=O)(O)OP(=O)(O)O)[C@@H](O)[C@H]2O)c(=O)[nH]1	pH 7.5	30 °C			34300
enzyme (Bacteroides fragilis, UniProt Q5LAD6)	C[C@@H]1O[C@@H](Oc2ccc([N+](=O)[O-])cc2)[C@@H](O)[C@H](O)[C@@H]1O	pH 7	37 °C			270
ABCB1 (Homo sapiens, UniProt P08183)	C=C[C@@H]1C[C@]1(NC(=O)[C@@H]1C[C@@H]2CN1C(=O)[C@H](C(C)(C)C)NC(=O)O[C@@H]1C[C@H]1CCCCCc1nc3ccc(OC)cc3nc1O2)C(=O)NS(=O)(=O)C1CC1		37 °C			0.325
enzyme (Leishmania braziliensis, UniProt A4HPA0)	Nc1ncnc2c1ncn2[C@@H]1O[C@H](COP(=O)(O)OP(=O)(O)OP(=O)(O)O)[C@@H](O)[C@H]1O				Mg2+	338
B9 (enzyme)	CC(=O)O	pH 8	32 °C	apparent		9450
gdh N97F (Bacillus subtilis)	NC(=O)c1ccc[n+]([C@@H]2O[C@H](COP(=O)(O)OP(=O)(O)OC[C@H]3O[C@@H](n4cnc5c(N)ncnc54)[C@H](O)[C@@H]3O)[C@@H](O)[C@H]2O)c1	pH 8	55 °C			560
